Assay results collected from several papers.
Lines come from different studies, so protocols differ. “And” joins repeats or separate records; there may be more than shown. Numbers after ± are the reported error. Converted amounts (≈) assume the structure as drawn.
Organism: Staphylococcus aureus

SMILES | assay | system | setting | how to read | endpoint | value
CN[C@H](CC(C)C)C(=O)N[C@H]1C(=O)N[C@@H](CC(N)=O)C(=O)N[C@H]2C(=O)N[C@H]3C(=O)N[C@H](C(=O)N[C@H](C(=O)O)c4cc(O)cc(O)c4-c4cc3ccc4O)[C@H](O)c3ccc(c(Cl)c3)Oc3cc2cc(c3O[C@@H]2O[C@H](CO)[C@@H](O)[C@H](O)[C@H]2O[C@H]2C[C@](C)(N)[C@H](O)[C@H](C)O2)Oc2ccc(cc2Cl)[C@H]1O | broth microdilution | methicillin-susceptible isolates | – | – | MIC50 | 1 µg/mL (≈ 0.69 µM)
O=C(O)c1cc(O)c(O)c(O)c1 | bacterial growth | ATCC 29213 | 24 h | – | IC50 | > 100 µM
O=C(O)c1ccc(-n2cc(CNc3cc(Br)cc(C(F)(F)F)c3)c(-c3ccc(F)c(F)c3)n2)cc1 | time-kill | ATCC 700699 (MRSA) | 4 × MIC, 4 h | – | log reduction in viable cells | 4 log CFU/mL
Cc1ccc(C[C@H](NC(=O)[C@@H](Cc2ccccc2)NC(=O)[C@@H](Cc2c[nH]c3ccccc23)NC(=O)[C@@H](N)CCCN)C(=O)N[C@H](Cc2ccccc2)C(=O)N[C@H](CCCCN)C(N)=O)cc1 | – | ATCC 33591, methicillin-resistant | – | – | IC50 | > 20 µg/mL
CCOC(=O)CSC1=N/C(=C\c2ccc(C(C)C)cc2)C(=O)N1c1ccccc1 | – | ATCC 6538 | concentration not given | – | inhibition zone diameter | 0 ± 0.06 mm
CCCCCCCCCC(=O)N[C@@H](Cc1c[nH]c2ccccc12)C(=O)N[C@H](CC(N)=O)C(=O)N[C@@H](CC(=O)O)C(=O)N[C@@H]1C(=O)NCC(=O)N[C@@H](CCCN)C(=O)N[C@@H](CC(=O)O)C(=O)N[C@H](C)C(=O)N[C@@H](CC(=O)O)C(=O)NCC(=O)N[C@H](CO)C(=O)N[C@@H]([C@H](C)CC(=O)O)C(=O)N[C@@H](CC(=O)c2ccccc2N)C(=O)O[C@@H]1C | – | MRSA ATCC BAA-1556 | MIC | – | time to complete killing | 4 to 5 h
O=C(/C=C/c1ccc(O)c(O)c1)O[C@@H]1C[C@@](O)(C(=O)O)C[C@@H](O)[C@@H]1O | bacterial growth | ATCC 29213 | 24 h | – | IC50 | > 100 µM
NC[C@H]1O[C@H](O[C@H]2[C@H](O)[C@@H](O[C@H]3O[C@H](CO)[C@@H](O)[C@H](N)[C@H]3O)[C@H](N)C[C@@H]2N)[C@H](O)[C@@H](O)[C@@H]1O | – | CGMCC 1.9 | concentration not given, 18 h, 37 °C | – | inhibition zone diameter | 17.5 mm
Cc1ccc(C[C@H](NC(=O)[C@@H](Cc2ccccc2)NC(=O)[C@@H](Cc2c[nH]c3ccccc23)NC(=O)[C@@H](N)CCCN)C(=O)N[C@H](Cc2ccccc2)C(=O)N[C@H](CCCN)C(N)=O)cc1 | bacterial growth | ATCC 29213 | – | – | IC50 | > 20 µg/mL
COc1ccc2cc3[n+](cc2c1OC)CCc1cc2c(cc1-3)OCO2 | – | – | – | – | MBC/MIC ratio | 4
O=C(NCCc1ccccc1)C1COC2(CCCCC2)O1 (centres unmarked) | crystal violet staining | – | 500 µg/mL, 24 h | relative to: untreated | residual biofilm | 11 ± 1%
C/C(=C\C(=O)OCCCCCCCCC(=O)O)C[C@@H]1OC[C@H](C[C@@H]2O[C@H]2[C@@H](C)[C@H](C)O)[C@@H](O)[C@H]1O | – | USA300, mouse, skin wound infection | topical, 100 µL twice daily, day 7 | relative to: initial | unhealed wound area | 77.2%
Cc1onc(-c2ccccc2)c1C(=O)N[C@@H]1C(=O)N2[C@@H]1SC(C)(C)[C@@H]2C(=O)O | – | CGMCC 1.9 | concentration not given, 18 h, 37 °C | – | inhibition zone diameter | 12 mm
O=C(/C=C/c1ccc(O)c(O)c1)O[C@H]1[C@H](O)C[C@](O)(C(=O)O)C[C@H]1O | bacterial growth | ATCC 29213 | 24 h | – | IC50 | > 100 µM
O=C(NCCc1ccccc1)C1COC2(CCCCC2)OC1 | crystal violet staining | – | 500 µg/mL, 24 h | relative to: untreated | residual biofilm | 17 ± 5%
C[C@H]1c2cccc(O)c2C(=O)C2=C(O)[C@]3(O)C(=O)C(C(N)=O)=C(O)[C@@H](N(C)C)[C@@H]3[C@@H](O)[C@@H]21 | – | CGMCC 1.9 | concentration not given, 18 h, 37 °C | – | inhibition zone diameter | 18.5 mm
CO[C@H]1[C@H](O[C@H]([C@H]2O[C@@H](n3ccc(=O)[nH]c3=O)[C@H](O)[C@@H]2O)[C@H](NCCCNC(=O)[C@@H](NC(=O)[C@@H](NC(=O)N[C@H](C(=O)O)C(C)C)[C@@H]2CCN=C(N)N2)[C@@H](O)C(C)C)C(=O)O)O[C@H](CN)[C@H]1O | resazurin microplate | 71080 (NR-46418) | – | – | MIC90 | > 35 µg/mL
CN[C@H](CC(C)C)C(=O)N[C@H]1C(=O)N[C@@H](CC(N)=O)C(=O)N[C@H]2C(=O)N[C@H]3C(=O)N[C@H](C(=O)N[C@H](C(=O)O)c4cc(O)cc(O)c4-c4cc3ccc4O)[C@H](O)c3ccc(c(Cl)c3)Oc3cc2cc(c3O[C@@H]2O[C@H](CO)[C@@H](O)[C@H](O)[C@H]2O[C@H]2C[C@](C)(N)[C@H](O)[C@H](C)O2)Oc2ccc(cc2Cl)[C@H]1O | – | USA300 LAC, female ICR mice, peritonitis, liver | – | – | bacterial load | 5.21 log CFU and 5.57 log CFU and 5.66 log CFU and 4.57 log CFU and 4.21 log CFU
O=C(O)c1ccc(-n2cc(CNc3ccc(Br)c(C(F)(F)F)c3)c(-c3cccc(F)c3)n2)cc1 | – | ATCC 25923 | biofilm, Calgary device | – | MBEC | 4 × MIC
CCCCCCCCCC(=O)N[C@@H](Cc1c[nH]c2ccccc12)C(=O)N[C@H](CC(N)=O)C(=O)N[C@@H](CC(=O)O)C(=O)N[C@@H]1C(=O)NCC(=O)N[C@@H](CCCN)C(=O)N[C@@H](CC(=O)O)C(=O)N[C@H](C)C(=O)N[C@@H](CC(=O)O)C(=O)NCC(=O)N[C@H](CO)C(=O)N[C@@H]([C@H](C)CC(=O)O)C(=O)N[C@@H](CC(=O)c2ccccc2N)C(=O)O[C@@H]1C | Calgary Biofilm Device | MRSA 1707 | 24 h | – | MBC | 125 µM
C[C@H]1COc2c(N3CCN(C)CC3)c(F)cc3c(=O)c(C(=O)O)cn1c23 | – | ATCC 25904 | 20 h | – | MBC | 0.091 µg/mL
OC[C@H]1O[C@@H](Oc2cc3c(O)cc(O)cc3[o+]c2-c2ccc(O)c(O)c2)[C@H](O[C@@H]2OC[C@@H](O)[C@H](O)[C@H]2O)[C@@H](O)[C@@H]1O | bacterial growth | ATCC 29213 | 24 h | – | IC50 | 16.8 µM
CN[C@H](CC(C)C)C(=O)N[C@H]1C(=O)N[C@@H](CC(N)=O)C(=O)N[C@H]2C(=O)N[C@H]3C(=O)N[C@H](C(=O)N[C@H](C(=O)O)c4cc(O)cc(O)c4-c4cc3ccc4O)[C@H](O)c3ccc(c(Cl)c3)Oc3cc2cc(c3O[C@@H]2O[C@H](CO)[C@@H](O)[C@H](O)[C@H]2O[C@H]2C[C@](C)(N)[C@H](O)[C@H](C)O2)Oc2ccc(cc2Cl)[C@H]1O | – | ATCC 29213 | – | – | MIC range | 1 µg/mL (≈ 0.69 µM)

A few entries again:
SMILES | assay | system | setting | how to read | endpoint | value
Cc1ccc(C[C@H](NC(=O)[C@@H](Cc2ccccc2)NC(=O)[C@@H](Cc2c[nH]c3ccccc23)NC(=O)[C@@H](N)CCCN)C(=O)N[C@H](Cc2ccccc2)C(=O)N[C@H](CCCCN)C(N)=O)cc1 | – | ATCC 33591, methicillin-resistant | – | – | IC50 | > 20 µg/mL
O=C(NCCc1ccccc1)C1COC2(CCCCC2)OC1 | crystal violet staining | – | 500 µg/mL, 24 h | relative to: untreated | residual biofilm | 17 ± 5%
CCCCCCCCCC(=O)N[C@@H](Cc1c[nH]c2ccccc12)C(=O)N[C@H](CC(N)=O)C(=O)N[C@@H](CC(=O)O)C(=O)N[C@@H]1C(=O)NCC(=O)N[C@@H](CCCN)C(=O)N[C@@H](CC(=O)O)C(=O)N[C@H](C)C(=O)N[C@@H](CC(=O)O)C(=O)NCC(=O)N[C@H](CO)C(=O)N[C@@H]([C@H](C)CC(=O)O)C(=O)N[C@@H](CC(=O)c2ccccc2N)C(=O)O[C@@H]1C | – | MRSA ATCC BAA-1556 | MIC | – | time to complete killing | 4 to 5 h
CN[C@H](CC(C)C)C(=O)N[C@H]1C(=O)N[C@@H](CC(N)=O)C(=O)N[C@H]2C(=O)N[C@H]3C(=O)N[C@H](C(=O)N[C@H](C(=O)O)c4cc(O)cc(O)c4-c4cc3ccc4O)[C@H](O)c3ccc(c(Cl)c3)Oc3cc2cc(c3O[C@@H]2O[C@H](CO)[C@@H](O)[C@H](O)[C@H]2O[C@H]2C[C@](C)(N)[C@H](O)[C@H](C)O2)Oc2ccc(cc2Cl)[C@H]1O | – | USA300 LAC, female ICR mice, peritonitis, liver | – | – | bacterial load | 5.21 log CFU and 5.57 log CFU and 5.66 log CFU and 4.57 log CFU and 4.21 log CFU
